Values quoted from earlier work that unrelated publications cite.
Each line is one published result; not all experiments were run side by side. ≈ marks a conversion by molar mass, not a printed value.
ABCG2: Broad substrate specificity ATP-binding cassette transporter ABCG2 (ABCG2, Homo sapiens, UniProt Q9UNQ0)
Chain of UniProt Q9UNQ0 (whole entry, looked up): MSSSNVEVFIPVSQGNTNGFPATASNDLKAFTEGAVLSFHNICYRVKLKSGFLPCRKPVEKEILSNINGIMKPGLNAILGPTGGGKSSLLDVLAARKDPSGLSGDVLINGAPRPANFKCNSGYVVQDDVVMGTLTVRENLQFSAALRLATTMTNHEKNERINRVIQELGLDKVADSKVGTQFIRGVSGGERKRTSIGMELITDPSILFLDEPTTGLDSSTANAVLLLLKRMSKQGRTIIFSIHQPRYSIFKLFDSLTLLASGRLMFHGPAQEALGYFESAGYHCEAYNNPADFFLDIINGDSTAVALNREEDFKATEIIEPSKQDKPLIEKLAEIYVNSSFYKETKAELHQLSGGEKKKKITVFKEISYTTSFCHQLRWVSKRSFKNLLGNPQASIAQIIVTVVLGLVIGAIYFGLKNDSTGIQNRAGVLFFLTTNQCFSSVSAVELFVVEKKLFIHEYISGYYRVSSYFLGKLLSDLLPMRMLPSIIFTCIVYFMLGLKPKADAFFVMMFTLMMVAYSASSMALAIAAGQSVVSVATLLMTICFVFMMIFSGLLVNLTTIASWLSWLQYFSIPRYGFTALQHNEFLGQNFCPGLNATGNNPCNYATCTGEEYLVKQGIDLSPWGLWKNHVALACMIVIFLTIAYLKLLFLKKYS
CYP3A4: Cytochrome P450 3A4 (CYP3A4, Homo sapiens, UniProt P08684)
Chain of UniProt P08684 (whole entry, looked up): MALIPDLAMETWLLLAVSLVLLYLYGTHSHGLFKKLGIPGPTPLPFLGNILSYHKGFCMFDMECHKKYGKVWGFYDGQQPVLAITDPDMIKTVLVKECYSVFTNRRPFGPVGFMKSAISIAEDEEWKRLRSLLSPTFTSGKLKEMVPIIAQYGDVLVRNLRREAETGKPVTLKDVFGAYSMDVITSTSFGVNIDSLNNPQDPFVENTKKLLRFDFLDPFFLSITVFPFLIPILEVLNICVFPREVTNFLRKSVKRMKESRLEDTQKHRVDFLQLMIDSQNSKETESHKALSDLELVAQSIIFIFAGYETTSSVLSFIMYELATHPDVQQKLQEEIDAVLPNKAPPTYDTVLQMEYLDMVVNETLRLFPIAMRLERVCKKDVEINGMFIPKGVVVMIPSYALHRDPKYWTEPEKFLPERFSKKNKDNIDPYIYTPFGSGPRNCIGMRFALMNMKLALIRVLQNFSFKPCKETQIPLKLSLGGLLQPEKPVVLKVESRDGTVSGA
Chain of UniProt P11712 (whole entry, looked up): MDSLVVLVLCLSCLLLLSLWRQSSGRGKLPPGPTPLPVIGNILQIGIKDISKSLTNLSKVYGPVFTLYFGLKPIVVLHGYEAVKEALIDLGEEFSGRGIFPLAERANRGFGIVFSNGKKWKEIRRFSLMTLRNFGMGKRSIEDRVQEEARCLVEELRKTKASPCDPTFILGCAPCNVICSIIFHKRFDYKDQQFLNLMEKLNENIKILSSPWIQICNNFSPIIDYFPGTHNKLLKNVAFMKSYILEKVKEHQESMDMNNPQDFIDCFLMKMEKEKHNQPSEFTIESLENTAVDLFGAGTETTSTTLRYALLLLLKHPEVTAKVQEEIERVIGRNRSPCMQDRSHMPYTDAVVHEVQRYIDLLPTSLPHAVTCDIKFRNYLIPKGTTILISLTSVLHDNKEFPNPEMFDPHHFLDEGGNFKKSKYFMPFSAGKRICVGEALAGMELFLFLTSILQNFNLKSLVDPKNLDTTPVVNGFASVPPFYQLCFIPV
Chain of UniProt Q9H1R3 (whole entry, looked up): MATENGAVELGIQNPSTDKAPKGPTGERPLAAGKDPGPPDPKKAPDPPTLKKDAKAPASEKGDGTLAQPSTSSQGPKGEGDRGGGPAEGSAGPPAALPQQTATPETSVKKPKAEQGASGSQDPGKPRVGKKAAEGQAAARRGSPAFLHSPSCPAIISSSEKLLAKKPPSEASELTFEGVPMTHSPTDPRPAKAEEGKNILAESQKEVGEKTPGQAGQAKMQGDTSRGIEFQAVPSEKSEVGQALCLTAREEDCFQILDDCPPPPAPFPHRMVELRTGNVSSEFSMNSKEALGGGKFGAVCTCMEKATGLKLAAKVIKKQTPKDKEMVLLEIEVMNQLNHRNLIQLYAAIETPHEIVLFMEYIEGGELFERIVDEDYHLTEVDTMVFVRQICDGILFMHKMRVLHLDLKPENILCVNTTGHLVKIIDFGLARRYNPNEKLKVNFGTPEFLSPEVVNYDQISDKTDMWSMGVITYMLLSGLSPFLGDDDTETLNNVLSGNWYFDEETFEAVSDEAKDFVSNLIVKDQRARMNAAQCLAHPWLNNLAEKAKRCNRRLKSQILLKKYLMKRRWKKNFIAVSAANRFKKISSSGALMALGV
Chain of UniProt P08183 (whole entry, looked up): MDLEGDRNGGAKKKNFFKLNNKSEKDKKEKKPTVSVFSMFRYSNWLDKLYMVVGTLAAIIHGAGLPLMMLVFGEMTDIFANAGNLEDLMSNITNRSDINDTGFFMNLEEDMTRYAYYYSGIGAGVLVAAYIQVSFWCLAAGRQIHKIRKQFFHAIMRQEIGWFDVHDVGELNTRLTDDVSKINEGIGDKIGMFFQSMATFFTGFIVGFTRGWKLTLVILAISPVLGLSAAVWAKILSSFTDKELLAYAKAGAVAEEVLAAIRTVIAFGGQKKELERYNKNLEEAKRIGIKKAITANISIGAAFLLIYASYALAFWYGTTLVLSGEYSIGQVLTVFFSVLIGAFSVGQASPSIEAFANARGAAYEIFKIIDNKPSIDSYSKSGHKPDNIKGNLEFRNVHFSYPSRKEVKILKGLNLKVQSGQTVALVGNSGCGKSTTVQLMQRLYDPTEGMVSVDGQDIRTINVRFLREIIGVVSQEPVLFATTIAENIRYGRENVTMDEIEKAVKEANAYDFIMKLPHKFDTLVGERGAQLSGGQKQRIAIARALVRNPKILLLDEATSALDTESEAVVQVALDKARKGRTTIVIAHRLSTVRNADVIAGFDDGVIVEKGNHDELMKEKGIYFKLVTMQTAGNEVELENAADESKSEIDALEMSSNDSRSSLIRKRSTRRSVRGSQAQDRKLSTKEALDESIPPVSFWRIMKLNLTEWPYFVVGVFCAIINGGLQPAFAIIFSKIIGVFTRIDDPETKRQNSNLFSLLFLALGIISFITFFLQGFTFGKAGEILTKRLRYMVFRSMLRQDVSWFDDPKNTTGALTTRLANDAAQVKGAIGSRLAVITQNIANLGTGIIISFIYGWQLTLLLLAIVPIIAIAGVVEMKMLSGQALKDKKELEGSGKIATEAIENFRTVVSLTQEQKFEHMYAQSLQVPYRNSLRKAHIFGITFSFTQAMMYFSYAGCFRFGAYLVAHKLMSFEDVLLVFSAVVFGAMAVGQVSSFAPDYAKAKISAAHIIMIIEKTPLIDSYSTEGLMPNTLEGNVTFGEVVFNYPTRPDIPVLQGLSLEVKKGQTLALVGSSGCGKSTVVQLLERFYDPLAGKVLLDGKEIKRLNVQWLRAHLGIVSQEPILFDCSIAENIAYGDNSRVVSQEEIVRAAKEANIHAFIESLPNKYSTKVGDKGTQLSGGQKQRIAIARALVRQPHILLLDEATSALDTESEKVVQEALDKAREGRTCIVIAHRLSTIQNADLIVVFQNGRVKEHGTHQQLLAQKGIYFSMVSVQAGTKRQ
Chain of UniProt P10632 (whole entry, looked up): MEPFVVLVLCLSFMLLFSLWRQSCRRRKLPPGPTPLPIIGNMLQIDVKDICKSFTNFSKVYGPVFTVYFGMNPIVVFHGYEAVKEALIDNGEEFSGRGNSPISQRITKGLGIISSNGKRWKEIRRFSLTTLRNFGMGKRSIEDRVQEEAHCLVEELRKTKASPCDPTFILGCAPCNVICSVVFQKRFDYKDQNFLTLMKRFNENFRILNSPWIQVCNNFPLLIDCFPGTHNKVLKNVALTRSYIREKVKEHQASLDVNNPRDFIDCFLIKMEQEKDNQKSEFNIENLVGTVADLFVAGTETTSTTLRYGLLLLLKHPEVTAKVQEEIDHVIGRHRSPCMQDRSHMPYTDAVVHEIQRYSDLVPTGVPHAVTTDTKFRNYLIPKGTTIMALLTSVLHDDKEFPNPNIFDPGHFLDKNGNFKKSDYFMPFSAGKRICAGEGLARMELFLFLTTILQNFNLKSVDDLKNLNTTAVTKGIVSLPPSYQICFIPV

| SMILES | tested on | assay | test system | conditions | how to read | measurement | value |
| --- | --- | --- | --- | --- | --- | --- | --- |
| O=C1CC[C@H](N2Cc3cc(N4CCN(CC5CCN(c6ccc([C@@H]7c8ccc(O)cc8CC[C@@H]7c7ccccc7)cc6)CC5)CC4)ccc3C2=O)C(=O)N1 | ABCG2 | clinical DDI | – | concentration not given, added: rosuvastatin (victim) | – | Cmax increase | 11% |
| Nc1cc(C(F)(F)F)c(-c2nc(N3CCOCC3)nc(N3CCOCC3)n2)cn1 | MYLK2 (Homo sapiens, UniProt Q9H1R3) | enzyme activity | – | 10 µM | relative to: untreated | remaining activity | 97% |
| CC(O)C(C)n1ncn(-c2ccc(N3CCN(c4ccc(OCC5COC(Cn6cncn6)(c6ccc(Cl)cc6Cl)O5)cc4)CC3)cc2)c1=O (stereo not drawn) | human CYP3A4 | substrate, measured: hydroxylation | – | – | – | Km | 0.027 µM |
| C=C[C@@H]1C[C@]1(NC(=O)[C@@H]1C[C@@H]2CN1C(=O)[C@H](C(C)(C)C)NC(=O)O[C@@H]1C[C@H]1CCCCCc1nc3ccc(OC)cc3nc1O2)C(=O)NS(=O)(=O)C1CC1 | human CYP3A4 | reversible inhibitor | human liver microsomes | added: testosterone | – | IC50 | > 100 µM |
| O=C(O)CN1CCNCCN(CC(=O)O)CCN(CC(=O)O)CC1 | protonation constant | – | – | 0.15 M NaCl | – | log KH3 | 4.43 |
| CNC(C)C1CCC(N)C(OC2C(N)CC(N)C(OC3OCC(C)(O)C(NC)C3O)C2O)O1 (stereo not drawn) | Enterobacter cloacae | – | clinical isolate RKI-No_571/13 | – | – | MIC | 4 µg/mL (≈ 8.38 µM) |
| Cc1ccc(C)c(OCCCC(C)(C)C(=O)O)c1 | albumin | – | plasma | – | – | plasma protein binding | 98.6% |
| CC(C)=CCc1c(O)cc(O)c2c1O[C@H](c1ccc(O)cc1)CC2=O | recombinant CYP1A2 (human) | enzyme activity, inhibitor | – | 10 µM, added: acetanilide | – | inhibition | > 90% |
| C[C@H]1O[C@@H](O[C@H]2[C@@H](O)C[C@H](O[C@H]3[C@@H](O)C[C@H](O[C@H]4CC[C@@]5(C)[C@H](CC[C@@H]6[C@@H]5C[C@@H](O)[C@]5(C)[C@@H](C7=CC(=O)OC7)CC[C@]65O)C4)O[C@@H]3C)O[C@@H]2C)C[C@H](O)[C@@H]1O | ABCB1 (Homo sapiens, UniProt P08183) | substrate | iPSC-derived intestinal cells | – | – | efflux ratio | 8.6 to 15.8 |
| CO[C@H]1/C=C/O[C@@]2(C)Oc3c(C)c(O)c4c(O)c(c(/C=N/N5CCN(C)CC5)c(O)c4c3C2=O)NC(=O)/C(C)=C\C=C\[C@H](C)[C@H](O)[C@@H](C)[C@@H](O)[C@@H](C)[C@H](OC(C)=O)[C@@H]1C | OATP1B1 (human) | substrate | – | – | – | Km | 1.5 µM |
| CC(O)c1cc(C(=O)N[C@@H](C)Cn2ccc(-c3ccc(C#N)c(Cl)c3)n2)[nH]n1 (stereo partly drawn) | OATP1B3 | – | – | – | literature minimum | IC50 | 5 µM |
| C=CC(=O)Nc1cc(Nc2nccc(-c3cn(C)c4ccccc34)n2)c(OCC(F)(F)F)nc1N(C)CCN(C)C | CYP3A4 | enzyme induction, inducer | in vitro | – | – | EC50 | 0.25 µM |
| C=C[C@@H]1C[C@]1(NC(=O)[C@@H]1C[C@@H]2CN1C(=O)[C@H](C(C)(C)C)NC(=O)O[C@@H]1C[C@H]1CCCCCc1nc3ccc(OC)cc3nc1O2)C(=O)NS(=O)(=O)C1CC1 | OATP1B1 | – | – | – | literature minimum | IC50 | 0.322 µM |
| O=C(O)C[C@H](O)C[C@H](O)/C=C/c1c(C2CC2)nc2ccccc2c1-c1ccc(F)cc1 | OATP1B3 | – | – | – | – | share of hepatic uptake clearance | 8% |
| CNCc1cn(S(=O)(=O)c2cccc(F)c2)c(-c2ccc(F)cc2F)c1OC | OATP1B1 | transporter uptake, inhibitor | – | – | – | IC50 | > 100 µM |
| COC[C@H]1C[C@@H](c2ncc(-c3ccc4c(c3)COc3cc5c(ccc6nc([C@@H]7CC[C@H](C)N7C(=O)[C@@H](NC(=O)OC)C(C)C)[nH]c65)cc3-4)[nH]2)N(C(=O)[C@H](NC(=O)OC)c2ccccc2)C1 | OATP1B3 (SLCO1B3) OATP1B3 | – | – | literature geometric mean | – | IC50 | 0.28 µM |
| CC[C@H]1OC(=O)[C@H](C)[C@@H](O[C@H]2C[C@@](C)(OC)[C@@H](O)[C@H](C)O2)[C@H](C)[C@@H](O[C@@H]2O[C@H](C)C[C@H](N(C)C)[C@H]2O)[C@](C)(OC)C[C@@H](C)C(=O)[C@H](C)[C@@H](O)[C@]1(C)O | SLCO1B3 | inhibitor | – | Simcyp compound file | – | Ki | 0.7 µM |
| O=C(O)CN(CCN(CC(=O)O)CC(=O)O)CC(=O)O | protonation constant | – | – | 0.15 M NaCl | – | log KH1 | 9.17 |

| SMILES | tested on | assay | test system | conditions | how to read | measurement | value |
| --- | --- | --- | --- | --- | --- | --- | --- |
| CC1(C)S[C@@H]2[C@H](NC(=O)[C@H](N)c3ccccc3)C(=O)N2[C@H]1C(=O)O | Escherichia coli | – | clinical isolate RKI-No_524/16 | – | – | MIC | > 16 µg/mL |
| O=c1[nH]ncn1-c1ccc(N2CCN(c3ccc(OCC4COC(Cn5cncn5)(c5ccc(Cl)cc5Cl)O4)cc3)CC2)cc1 (stereo not drawn) | CYP3A4 | enzyme activity, competitive inhibitor | – | – | – | Ki | 0.00032 µM |
| CCc1cc(/C(C)=N/OCc2ccc(C3CCCCC3)c(C(F)(F)F)c2)ccc1CN1CC(C(=O)O)C1 | Cytochrome P450 2C9 (CYP2C9, Homo sapiens, UniProt P11712) | in vitro reaction phenotyping | – | – | – | fraction metabolized | 0.793 |
| CCC(C)n1ncn(-c2ccc(N3CCN(c4ccc(OCC5COC(Cn6cncn6)(c6ccc(Cl)cc6Cl)O5)cc4)CC3)cc2)c1=O (stereo not drawn) | OATP1B3 (SLCO1B3) OATP1B1 | – | – | literature geometric mean | – | IC50 | > 20 µM |
| O=C(O)CC1CCN(C(=O)c2ccc(Cl)c(Cn3ccc4cc(C(F)(F)F)cc(Cl)c43)c2Cl)CC1 | ABCG2 | inhibitor | human | oral, 375 mg once daily | – | rosuvastatin Cmax increase | 141% |
| CO[C@H]1/C=C/O[C@@]2(C)Oc3c(C)c(O)c4c(O)c(c(/C=N/N5CCN(C)CC5)c(O)c4c3C2=O)NC(=O)/C(C)=C\C=C\[C@H](C)[C@H](O)[C@@H](C)[C@@H](O)[C@@H](C)[C@H](OC(C)=O)[C@@H]1C | OATP1B3 | – | – | – | literature maximum | IC50 | 190 µM |
| CC(=O)Nc1ccc(O)cc1 | UGT2B15 | – | – | – | – | Vmax | 36400 pmol/min/mg protein |
| N[C@@H]1c2cccnc2[C@H](OC(=O)N2CCC(n3c(=O)[nH]c4ncccc43)CC2)CC[C@H]1c1cccc(F)c1F | CYP2C19 (human) | – | human liver microsomes | – | – | IC50 | > 40 µM |
| Cc1ccc(C)c(OCCCC(C)(C)C(=O)O)c1 | OATP1B1 | – | – | – | – | Ki | 4 to 381 µM |
| COC(=O)N[C@@H](C)CNc1nccc(-c2cn(C(C)C)nc2-c2cc(Cl)cc(NS(C)(=O)=O)c2F)n1 | CYP2C19 (human) | – | human | human ADME study | – | contribution to metabolism | 16% |
| CC(O)C(C)n1ncn(-c2ccc(N3CCN(c4ccc(OCC5COC(Cn6cncn6)(c6ccc(Cl)cc6Cl)O5)cc4)CC3)cc2)c1=O (stereo not drawn) | CYP3A4 | substrate | – | – | – | Vmax | 0.13 pmol/min/pmol |
| Cc1ccc(C)c(OCCCC(C)(C)C(=O)O)c1 | OATP1B3 (SLCO1B3) OATP1B3 | – | – | literature geometric mean | – | IC50 | 137 µM |
| CO[C@H]1/C=C/O[C@@]2(C)Oc3c(C)c(O)c4c(O)c(c(/C=N/N5CCN(C)CC5)c(O)c4c3C2=O)NC(=O)/C(C)=C\C=C\[C@H](C)[C@H](O)[C@@H](C)[C@@H](O)[C@@H](C)[C@H](OC(C)=O)[C@@H]1C | CYP2B6 | inducer | – | – | – | EC50 | 0.07 µM |
| Fc1c(F)c(F)c(Br)c(F)c1F | CYP2C19 | – | – | concentration not given | – | activity | inactive |
| C[C@]1(c2nc3c(C(N)=O)cccc3[nH]2)CCCN1 | OCT2 | transport, substrate | HEK293 expressing OCT2 | – | – | uptake clearance | 8.6 pmol/min/mg protein |
| COc1cc(N2CCC(N3CCN(C)CC3)CC2)ccc1Nc1ncc(Cl)c(Nc2ccccc2P(C)(C)=O)n1 | CYP3A (human) | drug interaction | human | 180 mg, added: rifampin 600 mg | relative to: compound alone | Cmax decrease | 60% |
| Cc1ccc(C)c(OCCCC(C)(C)C(=O)O[C@@H]2O[C@H](C(=O)O)[C@@H](O)[C@H](O)[C@H]2O)c1 | OATP1B3 (SLCO1B3) OATP1B1 | – | – | literature geometric mean | – | IC50 | 14.2 µM |
| CO[C@H]1C[C@@H]2CC[C@@H](C)[C@@](O)(O2)C(=O)C(=O)N2CCCC[C@H]2C(=O)O[C@H]([C@H](C)C[C@@H]2CC[C@@H](O)[C@H](OC)C2)CC(=O)[C@H](C)/C=C(\C)[C@@H](O)[C@@H](OC)C(=O)[C@H](C)C[C@H](C)/C=C/C=C/C=C/1C | Cytochrome P450 2C8 (CYP2C8, Homo sapiens, UniProt P10632) | recombinant enzyme | – | – | – | intrinsic clearance | 0.25 µL/min/pmol CYP |

Excerpt of the above:
| SMILES | tested on | assay | test system | conditions | how to read | measurement | value |
| --- | --- | --- | --- | --- | --- | --- | --- |
| Nc1cc(C(F)(F)F)c(-c2nc(N3CCOCC3)nc(N3CCOCC3)n2)cn1 | MYLK2 (Homo sapiens, UniProt Q9H1R3) | enzyme activity | – | 10 µM | relative to: untreated | remaining activity | 97% |
| CC1(C)S[C@@H]2[C@H](NC(=O)[C@H](N)c3ccccc3)C(=O)N2[C@H]1C(=O)O | Escherichia coli | – | clinical isolate RKI-No_524/16 | – | – | MIC | > 16 µg/mL |
| COc1cc(N2CCC(N3CCN(C)CC3)CC2)ccc1Nc1ncc(Cl)c(Nc2ccccc2P(C)(C)=O)n1 | CYP3A (human) | drug interaction | human | 180 mg, added: rifampin 600 mg | relative to: compound alone | Cmax decrease | 60% |
